Results pooled from the literature.
Each line is one published result; not all experiments were run side by side. ± marks the error that the study gave.

SMILES | test | test system | conditions | how to read | quantity | value
Cc1cccc(CNC(=O)c2cn(CCNC(=O)c3ccccc3S)c3cc4c(cc3c2=O)OC(F)(F)O4)n1 |  | Sprague-Dawley rat, male, whole blood | intramuscular, 30 mg/kg of parent drug |  | MRT(0-inf) | 14.7 h
C[C@@H](N)c1cc(Cl)ccc1Cn1c(=S)[nH]c(=O)c2[nH]ccc21 |  | human severe renal impairment | oral, 2.5 mg single dose |  | subjects with headache | 10%
OC[C@H]1O[C@@H](c2ccc(F)c(Cc3cc4ccccc4s3)c2)[C@H](O)[C@@H](O)[C@@H]1O |  | Japanese type 1 diabetes patients | oral, 25 mg/day, day 2 |  | hypoglycaemia adverse events | 9 % patients
O=C(NO)c1ccc(CN(c2cnccn2)c2cnccn2)cc1 |  | human | oral, dose not given, treatment-related grade 1, all dose cohorts |  | patients with adverse event | 25%
Cc1ccc([C@@H]2O[C@H](CO)[C@@H](O)[C@H](O)[C@H]2O)cc1Cc1ccc(-c2ccc(F)cc2)s1 |  | Japanese type 2 diabetes patients | 400 mg, day 6, 24 h urine collection | baseline: baseline | urinary chloride excretion change | -28.9 mEq
CCc1cc(C(=O)NC)c2nccc(N3CCc4c(cc(Cn5ccnc5)cc4-c4cn(C)nc4C(F)(F)F)C3=O)c2c1 |  | Sprague Dawley rats | oral, 100 mg/kg once daily, 7 days | baseline: vehicle | serum WBC change | -24%
CCOC(=O)N1C[C@@H](C2CCCC2)N[C@@H](c2ccc(C(C)(C)C)cc2)C1 | shake-flask, LC-HRMS | aqueous buffer | 16 h, pH 6.8 |  | solubility | < 4 µM
NC1(C(=O)N[C@@H](CCO)c2ccc(Cl)cc2)CCN(c2nc[nH]c3nccc2-3)CC1 |  | human mCRPC patients | oral, twice daily, 4/7 days, grade 3/4, treatment-related, together with: enzalutamide 160 mg daily |  | decreased appetite incidence | 0%
Cc1c(-c2ccc(N3CCc4cccc(C(=O)Nc5nc6ccccc6s5)c4C3)nc2C(=O)O)cnn1CC12CC3(C)CC(C)(C1)CC(OCCNCC[C@H](O)CO)(C3)C2 |  | beagle dog, male, anaesthetised | intravenous infusion, 0.3 mg/kg/min, 90 min | baseline: vehicle | QRS duration change | -1 ms
COc1cc(C(=O)N2CCC3(CC2)CC(=O)c2c(cnn2C(C)C)C3)cc(-c2ccc(C(=O)O)cc2)n1 |  | human, fasting serum | 40 mg once daily, day 13, adjusted geometric mean | baseline: placebo | HDL cholesterol change from baseline | -13.7%
N#Cc1ccc2c(c1)[C@H]1CCCN(C(=O)c3ccc4[nH]cnc4c3)[C@H]1C2 |  | human males | 240 mg, day 7 |  | SHBG level | 22.7 nmol/L
CCN1CCN(Cc2ccc(NC(=O)c3ccc(C)c(NC(=O)c4cncc(-c5cccs5)c4)c3)cc2C(F)(F)F)CC1 |  | C57BL/6 mice, epithelial lining fluid | intraperitoneal, 15 mg/kg |  | apparent volume of distribution | 7.8 L/kg
CCOC(=O)N1C[C@@H](c2cnc(-c3ccccc3)nc2)N[C@@H](c2ccc(-c3ccccc3)cc2)C1 | shake-flask, LC-HRMS | aqueous buffer | 16 h, pH 6.8 |  | solubility | < 4 µM
CC(=O)N[C@@H](CS)C(=O)O | single-pass intestinal perfusion | Wistar rat, duodenum vs jejunum |  |  | effective permeability | no effect
CC(C)c1nc(N(C)S(C)(=O)=O)nc(-c2ccc(F)cc2)c1/C=C/[C@@H](O)C[C@@H](O)CC(=O)O | refers to: nausea | healthy men | oral, dose not given, 8 days, treatment-emergent, crossover trial |  | subjects with adverse event | 0%
CCN1/C(=C/C(C)=O)Sc2ccc(F)cc21 |  | cynomolgus monkey | oral, 30 mg/kg, 1 h post-dose | baseline: pre-dose | diastolic blood pressure change | 97.4 ± 5.9%
O=c1[nH]c(=O)n([C@@H]2O[C@H](CO)[C@@H](O)[C@@H]2F)cc1CCC[18F] |  | nude mice, RG2 tumour, lung | intravenous, dose not given, 2 h |  | biodistribution | 0.14 ± 0.08 %ID/g
CCCCC/C=C\C/C=C\CCCCCCCC(=O)O.Cc1cc(/C=C/C#N)cc(C)c1Nc1ccnc(Nc2ccc(C#N)cc2)n1 |  | aqueous buffer | pH 4.5 |  | equilibrium solubility | 0.09 ± 0.01 µg/mL
CNC(=O)c1cc(Oc2ccc(NC(=O)Nc3ccc(Cl)c(C(F)(F)F)c3)c(F)c2)ccn1 |  | mouse plasma | 25 ng/mL, 8 h, room temperature |  | short-term stability accuracy | 99.1%
CCO[C@H]1CCN(Cc2c(OC)cc(C)c3[nH]ccc23)[C@H](c2ccc(C(=O)O)cc2)C1 |  | PNH patients, active haemolysis | oral, 25 mg, treatment |  | incidence of pyrexia | 14.3%

SMILES | test | test system | conditions | how to read | quantity | value
O=C(O)c1cccc(CSc2nnc(-c3ccncc3)o2)c1 |  | aqueous buffer | pH 7.4 |  | solubility | 422 µg/mL
CCC[C@H](C)[C@H]1CN(C(=O)OCC)C[C@@H](c2cc(Cl)cc(Cl)c2)N1 | shake-flask, LC-HRMS | aqueous buffer | 16 h, pH 6.8 |  | solubility | < 4 µM
C[C@H](CCC(=O)NCC(=O)O)[C@H]1CC[C@H]2[C@@H]3[C@H](O)C[C@@H]4C[C@H](O)CC[C@]4(C)[C@H]3CC[C@]12C |  | human, plasma | control |  | Cmin | 84.8 ± 16.8 nM
CCCCc1ccc(C#Cc2ccc(OCC)cc2)cc1 |  | rat, placenta | 10 ng/mL in perfusate, low dose, mixture of 21 LCMs |  | placental accumulation | 1.34 ± 1.82 ng/g
COc1ccc([C@@H](O)c2cc(-c3ncnc4cc(N5CCOCC5)ccc34)c(F)cc2Cl)nn1 |  | locally advanced rectal cancer | oral, 150 mg, together with: capecitabine and radiotherapy |  | rectal tenesmus TEAE | 33%
Cc1cnc(N2CC3(CCOCC3)C2)c(C(=O)Nc2ccc(C(=O)N3CCc4cc(C(=O)Nc5c(C)cccc5F)sc4-c4ccccc43)cc2)c1 |  | rat, plasma | inhaled, 2.7 mg/kg |  | duration of systemic exposure after dosing | ≤ 12 h
CCOc1c([C@H](C)n2nc(C)c3c(N)ncnc32)cc(Cl)c(F)c1[C@@H]1CNC(=O)C1 | refers to: QTcF ≤450 ms | previously treated B-cell malignancy | oral, 15 mg once daily, baseline QTcF ≤450 ms |  | patients | 100%
C[Si](C)(C)O[Si](C)(C)O[Si](C)(C)C | regression |  | 25 °C |  | log KAW | 3.07
CCCC[C@H]1CC[C@H](c2ccc(C#N)cc2)CC1 |  | Sprague-Dawley rat, female, placenta | 10 ng/mL in perfusate, 50 (unit not given), low dose, mixture of 21 LCMs |  | placental accumulation | 2.36 ± 2.93 ng/g
O=C(Nc1nc2cccc(-c3ccc(CN4CCS(=O)(=O)CC4)cc3)n2n1)C1CC1 | refers to: epigastric discomfort | human rheumatoid arthritis patients | oral, 200 mg once daily, 4 weeks, regardless of relatedness |  | treatment-emergent adverse events | 8.3%
c1ccc(-c2ccc([C@@H]3COC[C@@H](C4CC4)N3)cc2)cc1 | shake-flask, LC-HRMS | aqueous buffer | 16 h, pH 6.8 |  | solubility | > 750 µM
COc1ccc2c(c1)CN(C(=O)CCN1CCC(Cc3ccccc3)CC1)CC[S@@+]2[O-] | telemetry | conscious male beagle dogs | intravenous, 2 mg/kg, 0.5 h |  | QRS duration | 32 ± 9 ms
C=CC(=O)N(C)CCOc1c(N)ncnc1-c1cc(F)cc(NC(=O)c2ccc(C3CC3)cc2F)c1C |  | human, plasma | oral, 400 mg once daily, day 12 |  | AUC | 1280 ng·h/mL
O=C(NO)[C@H]1COC(c2c[nH]c3ccc(F)cc23)=N1 |  | aqueous buffer | pH 7.4 |  | solubility | 9.64 µg/mL
Cc1cc([C@H]2C[C@H]3[C@@H](C)SC(N)=N[C@@]3(c3ccc(F)cc3F)CO2)on1 |  | male 129/SVE mouse, CSF | subcutaneous, 50 mg/kg, 5 h |  | CSF concentration | 99 nM
COc1cccc(OC)c1-c1cc(C(=O)NC2(C(=O)O)C3CC4CC(C3)CC2C4)nn1-c1ccc(C(=O)N(C)CCCN(C)CCCN(C)C(=O)CN2CCN(CC(=O)[O-])CCN(CC(=O)[O-])CCN(CC(=O)[O-])CC2)cc1C(C)C.[177Lu+3] (stereo not shown) |  | mouse, HT-29 xenograft, liver | 24 h post injection |  | tissue uptake | 0.7 %ID/g
Cc1cc([C@H]2C[C@H]3[C@@H](CF)SC(N)=N[C@@]3(c3ccc(F)cc3F)CO2)on1 |  | 129/SVE wild-type mouse, male | subcutaneous, 100 mg/kg, 9 h |  | CSF concentration | 10 nM
CNC(=O)c1cc(Oc2ccc(NC(=O)Nc3cc(C(C)(C)C)nn3-c3ccc4ncccc4c3)c(F)c2)ccn1 | refers to: musculoskeletal disorders, all grades | human patients | oral, dose not given, medium Cmax subgroup, cycles 1-2 |  | patients with adverse events | 47%
O=C1NCCc2nc(OCc3cccc(F)c3)ccc21 | refers to: Writhing | Sprague-Dawley rat male | oral, 100 mg/kg, 0 min | baseline: baseline, direction not given | Irwin test score | 0
Cc1noc(C)c1Cn1cc(N2C(=O)CN(Cc3cccc(O)c3)C2=O)cn1 |  | pooled rat liver microsomes Sprague-Dawley | 1 µM, 30 min, pH 7.4 |  | remaining parent | 70 % peak area

SMILES | test | test system | conditions | how to read | quantity | value
Cn1cc([C@@H]2COC[C@@](C)(c3ccccc3)N2)cn1 | shake-flask, LC-HRMS | aqueous buffer | 16 h, pH 6.8 |  | solubility | > 750 µM
CCc1nc(C(N)=O)c(Nc2ccc(N3CCC(N4CCN(C)CC4)CC3)c(OC)c2)nc1NC1CCOCC1 |  | Japanese patients, plasma | oral, 200 mg, cycle 0 day -2, single dose, mean |  | Cmax | 221 ng/mL
CC(C)C[C@H](NC(=O)[C@@H](Cc1c[nH]c2ccccc12)NC(=O)[C@H](Cc1ccc(O)cc1)NC(=O)[C@H](CO)NC(=O)[C@H](Cc1c[nH]c2ccccc12)NC(=O)[C@H](Cc1c[nH]cn1)NC(=O)[C@@H]1CCC(=O)N1)C(=O)N[C@@H](CCCNC(=N)N)C(=O)N1CCC[C@H]1C(=O)NCC(N)=O |  | Chinese CPP children, boys | intramuscular, 22.5 mg, 12 months, day 1, month 6 |  | patients, drug-related skin TEAEs | 25%
CNC(=O)c1ccc(-c2cnc3ncc(Cc4ccc5ncccc5c4)n3n2)cc1F | refers to: Cough, all grades | cancer patients | oral, 600 mg twice daily, expansion cohort, any causality |  | patients with adverse event | 5%
CCc1cc2c(cc1N1CCC(N3CCOCC3)CC1)C(C)(C)c1[nH]c3cc(C#N)ccc3c1C2=O |  | ALK inhibitor-naive patients, body weight below sample A kg | oral, 600 mg twice daily, week 6 |  | average plasma concentration | 1600 nM
N#Cc1ccc(-c2cnc3ccc(-c4ccc(C(=O)N5CCOCC5)cc4)cn23)cc1 | refers to: QTcF interval | healthy volunteers | oral, 20 mg, fasted, time-averaged |  | placebo-corrected change from baseline | -5.5 ms
CC(C)(C)c1ccc([C@H]2COC[C@H](c3ccc(Cl)cc3)N2)cc1 | shake-flask, LC-HRMS | aqueous buffer | 16 h, pH 6.8 |  | solubility | < 4 µM
CC(C)[C@@H](CS(=O)(=O)C(C)C)N1C(=O)[C@@](C)(CC(=O)O)C[C@H](c2cccc(Cl)c2)[C@H]1c1ccc(Cl)cc1 |  | FVB mouse, wild type, spinal cord | oral, 20 mg/kg |  | AUC(0-inf) | 67 ± 8.6 ng·h/mL
COC(=O)Nc1ccc2nc(C(=N)N)ccc2c1 |  | aqueous buffer | pH 7.4 |  | solubility | 78.9 µg/mL
Cc1ccc(Sc2ccccc2N2CCNCC2)c(C)c1 |  | elderly men | oral, 10 mg single |  | increased urine β2-microglobulin | 0%
Cc1cc(NC2CCN(C(=O)OC3CCN(C(=O)/C=C/CN(C)C)C3)CC2)n2ncc(C(C)C)c2n1 (stereo not shown) | Phase I dose escalation CTCAE v4.0, refers to: abdominal distension | patients with advanced solid tumours | dose not given, QD dosing any grade |  | patients with adverse event | 9%
CCOC(=O)N1C[C@@H](c2cc(F)c(O)c(F)c2)N[C@@H](c2ccc([C@H](C)CC)cc2)C1 | shake-flask, LC-HRMS | aqueous buffer | 16 h, pH 6.8 |  | solubility | < 4 µM
CCCCOC(=O)N1CCN(C(=O)[C@H](CP(=O)(O)O)NC(=O)c2cc(N3CC[C@H](OC)C3)nc(-c3ccccc3)n2)CC1 | refers to: alanine aminotransferase | human, blood | 16 mg, 24 h |  | change from baseline | -0.3 ± 4.8 U/L
Cn1cc([C@H]2COC[C@@H](c3ccc(C#N)cc3)N2)cn1 | shake-flask, LC-HRMS | aqueous buffer | 16 h, pH 6.8 |  | solubility | > 750 µM
O=c1[nH]c(=O)n([C@H]2C[C@H](O)[C@@H](CO)O2)cc1CCC[18F] |  | male CD-1 nu/nu mice, RG2 tumour, bone | intravenous, dose not given, 2 h |  | biodistribution | 0.45 ± 0.16 %ID/g
Cn1cc(Nc2nccc(-c3ccc4c(c3)CN(C3COC3)CC[C@H]4NC(=O)c3cn(C(C)(C)C)nn3)n2)cn1 |  | human, whole blood | 150 mg twice daily, day 7 | baseline: pre-dose baseline | monocyte count change | -2.15%
O=c1[nH]c(=O)n([C@@H]2O[C@H](CO)[C@@H](O)[C@@H]2F)cc1CCCC[18F] |  | nude mice, RG2 tumour, muscle | intravenous, dose not given, 2 h |  | biodistribution | 0.21 ± 0.05 %ID/g
CNCc1ccc(-c2[nH]c3cc(F)cc4c3c2CCNC4=O)cc1 |  | human patients | oral, 600 mg twice daily, grade 2 |  | vomiting incidence | 0%
